Experimental data from different studies.
Every numbered part comes from another study and shows a few of its results, in no order.

Block 1
Target: RING finger protein unkempt homolog, zinc fingers 1-6, GST-SBP tag (UNK, Homo sapiens, UniProt Q9C0B0, residues 30-357)
Method: RNA Bind-n-Seq
Form: RNA
Sample: in vitro
Concentration: not given
Setting: RNA with constant flanks, human and mouse sites, ends assumed
Reference: input RNA pool
Direction: higher = stronger binding
Residues (chain): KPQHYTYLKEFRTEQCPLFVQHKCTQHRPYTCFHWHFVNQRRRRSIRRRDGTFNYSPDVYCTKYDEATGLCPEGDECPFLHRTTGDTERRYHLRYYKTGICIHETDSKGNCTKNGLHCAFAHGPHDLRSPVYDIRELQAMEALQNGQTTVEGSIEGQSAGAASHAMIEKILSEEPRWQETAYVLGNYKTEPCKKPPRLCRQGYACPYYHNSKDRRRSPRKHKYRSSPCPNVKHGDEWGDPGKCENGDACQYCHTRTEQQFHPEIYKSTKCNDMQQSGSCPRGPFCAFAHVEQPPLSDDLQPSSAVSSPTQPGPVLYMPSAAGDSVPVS
Strand	bound/input enrichment
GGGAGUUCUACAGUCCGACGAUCCACUGAGGUUUCUCUGUCGCCCACCAAAAAAAAAAAAAAAAAAAAAAAUGGAUCACUUAAGGCCUGGGAGGACUCAGUUAUCACAGUAAUCCUGUACCAUCAACUAAGGUUUAUCUGACACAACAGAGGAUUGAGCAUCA	0.632 ratio
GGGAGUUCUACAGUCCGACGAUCGCAAAUAUGACAAGGGAAAAAAUUGCAGCACAGGUUGAUUAUCAUUUACCUGAAAUGCUUGAGACACAAUGUACCUCAGAUUACAAAUUGUAUAUAUAUAUUUUUUUUAUUUUGAAAUAUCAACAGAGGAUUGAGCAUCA	2.08 ratio
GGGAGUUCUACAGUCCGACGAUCGAUGAAGUGUUAGUAAAUCACUUCUGUGAAGAAUUUGGGAAGAAAUACAAGCUAGACAUUAAGUCCAAAAUCCGUGCAUUAUUACGACUCUCUCAGGAGUGUGAGAAACUCAAGAAAUUGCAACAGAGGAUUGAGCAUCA	0.269 ratio
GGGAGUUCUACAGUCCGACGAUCGGGGGCCACGGGGAAGAUAGGCCGGAGCCCUUAAGCCCCAAAGAGAGCAAGAAGAGGAAGCUGGAGCUGAGCCGGCGGGAGCAGCCGCCCACAGAGCCAGGCCCUCAGAGUGCCUCAGAGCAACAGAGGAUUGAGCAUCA	0.305 ratio
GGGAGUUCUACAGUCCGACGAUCUCUCAGACUCCAGCUUCCAGCCCUACGUUCUUCCAGGCAGAGCUAUGGAUCAAAGAAUUAACUAGCGUUUAUGACUCUCGAGCUCGGGAAAGAUUGCGCCGGAUUGAAGAGCAGAAAGCACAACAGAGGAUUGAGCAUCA	0.319 ratio
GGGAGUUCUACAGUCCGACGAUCCAUCGAAUUGGAAGAACUGCUCGCAGUACCAAAACAGGCACAGCAUACACUUUCUUUACACCUAAUAACAUAAAGCAAGUGAGCGACCUUAUCUCUGUGCUUCGGGAAGCUAAUCAAGCACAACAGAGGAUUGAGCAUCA	0.0703 ratio
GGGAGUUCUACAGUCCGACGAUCAAGACACCACCUAGUAAUCUCUCUCCCAUUGAAGAUGCAUCUCCGACAGAAGAGUUACGUCAGGCUGCAGAAAUGGAGGAGCUCCAUAGAUCUUCUUGUUCUGAAUAUUCACCUAGCAUACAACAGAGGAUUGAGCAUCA	2.19 ratio
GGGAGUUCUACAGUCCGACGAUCCAGGGUCUUUAUUCCUCAUCUGCCGGAAGUGGGAAAUGCAUAGUAGAGGUUACAAUGGACAGAAAUUGUCUCGAGGUUCUUCCAACUAAAAUGUCUUAUGCUGCCAAUCUAAAAAAUGUACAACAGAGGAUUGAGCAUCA	0.238 ratio

Block 2
Target: RNA binding protein fox-1 homolog 2, RRM domain, GST-SBP tag (RBFOX2, Homo sapiens, UniProt O43251-10, residues 100-194)
Method: RNA Bind-n-Seq
Form: RNA
Sample: in vitro
Concentration: 365 nM
Setting: natural RNA segment, single round, ends assumed
Reference: no-protein control
Direction: higher = stronger binding
Target sequence (chain): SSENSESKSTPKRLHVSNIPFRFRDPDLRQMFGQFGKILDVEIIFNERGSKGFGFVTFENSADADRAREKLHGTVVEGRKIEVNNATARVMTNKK
Strand	RBNS enrichment (R)
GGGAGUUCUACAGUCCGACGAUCUUUUCUCUUGGUUGUAGAGUGGCCCAGAAUUGCAUUCUGAAUGAAUAAAGGUUAAAAAAAAAUCCCCAGUGCAUGUAUUUCAGUUCUCUAAGAUUUUUGGUCUGGCAUUGUGGAAUUCUCGGGUGCCAA	34.9
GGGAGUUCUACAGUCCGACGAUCCUGGAGGCUCUGAAUGUCUAACUUUAGCAUCAAAGUGUCUGUCUCAGAUUCCCAGUAAACACCUCUGUAGGGGAUGAAGUUUCCAUGUCCCCCAUCUUCCUUUUGGUCACUGGAAUUCUCGGGUGCCAA	1.62
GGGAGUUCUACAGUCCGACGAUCACCAGCUGGCUUUGUGACCUUGGGCGAGUCGCCUCCCCUCUCUGAGCUGAAGCCGCCCCUCCCCUACUACAACAGGGGUCGGACUCCAUGUCUGAGCGGGGAGGAGGGUCUGGAAUUCUCGGGUGCCAA	0.286
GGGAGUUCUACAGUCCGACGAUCCCCUCCUCUUGGAAUAUUCAGCCUAAGAACCUCAUAGGACUAUGAAUUCACCCGAAAUUCUCAUUUGCCAUCAGGCCGAGCUUUUAAAGAAAAAUUGUUCUCUAACCAGGUGGAAUUCUCGGGUGCCAA	0.33
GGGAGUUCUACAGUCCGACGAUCAAAAAUUCAAUUAUCCGAUUGUAUUUAACAUCUUUAAGAGCAUGAUCAUAAAGAGCUAUUUUUGACACCCCCCCCCCACUUUUUUAACAUUUAGAGUUAGUAAGGGUUUUUGGAAUUCUCGGGUGCCAA	6.79
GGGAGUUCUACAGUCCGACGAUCCUACACUGACCCAGAGGCAUAGGAAGGCUUGCUGUCUGCCCUGCACCACCCACAGAGCUGCGGCACCCAUAGCAGCUGGGCCUGAGCCUGAGCACUAGCCGGAGUCUGGGUGGAAUUCUCGGGUGCCAA	0.361
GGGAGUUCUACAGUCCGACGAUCAGAAAGAGCCAAAUAUGAUGAUCACAGCUUAUAGUAGCAGUAAAACUGUUUUCUUUCUUUUUUCCUGUCUCCCUCCCGUCCUUUGUGGUGGGAGGGCAGGAGGCCCAAUGUGGAAUUCUCGGGUGCCAA	0.28
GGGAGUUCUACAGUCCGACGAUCCAGUCACCAGGGAGCUCACUUUCCACUUGGAGACGCUUUGCUCUGCUUGUGCACCGCCAGCUUCUGUCUCCAGAAAAGUGUAACUUUGCUCUGUUUCUGCAUGAAGCACAUGGAAUUCUCGGGUGCCAA	2.24

Block 3
Target: Interferon regulatory factor 7, full length, phosphomimetic (IRF7, Homo sapiens, UniProt Q92985, residues 1-503, S471D/S472D/S475D/S476D/S477D/S483D/S484D/S487D)
Sequence of UniProt Q92985 (whole entry, unmodified, looked up): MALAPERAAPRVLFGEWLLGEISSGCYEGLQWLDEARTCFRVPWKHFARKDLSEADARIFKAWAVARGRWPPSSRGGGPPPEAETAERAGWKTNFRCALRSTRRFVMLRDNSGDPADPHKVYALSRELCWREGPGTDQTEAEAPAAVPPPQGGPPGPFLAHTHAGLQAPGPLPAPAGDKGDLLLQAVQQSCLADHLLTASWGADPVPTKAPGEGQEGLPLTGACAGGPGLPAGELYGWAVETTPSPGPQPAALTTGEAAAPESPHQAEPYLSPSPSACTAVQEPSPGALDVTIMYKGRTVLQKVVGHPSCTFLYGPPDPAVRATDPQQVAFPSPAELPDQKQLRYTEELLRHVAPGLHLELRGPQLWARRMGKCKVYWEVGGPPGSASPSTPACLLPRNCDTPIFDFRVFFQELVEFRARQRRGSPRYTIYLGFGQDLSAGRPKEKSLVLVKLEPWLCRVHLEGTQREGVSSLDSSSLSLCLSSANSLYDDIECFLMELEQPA
Method: protein-binding microarray
Form: double-stranded DNA, one strand shown
Sample: in vitro
Concentration: 2200 nM top
Setting: 60-bp whole probe
Added: salmon DNA 0.4 mg/ml
Reference: random background probes
Direction: higher = stronger binding
All sequences stand within: GCCTAGCAC … GTCTTGATTCGCTTGACGCTGCTG
Strand	fitted relative affinity [z-score]
TTAGGTCTACTTATCCTTTAGTGCTAG	0.696
GAGGGACTGGGACTGGGGACGTGCTAG	-0.941
TTTGATTTCAGTTTCGATTAGTGCTAG	8.64
CTAGGACTGGGGACTGGGTTAGTGCTA	-1.26
GACGGTTTCGACTTACGGGACGTGCTA	8.02
CACGATTTCGGGACTGGAGACGTGCTA	1.75
TTAGGACTGCTTATCTTTTAGTGCTAG	-0.00751
AGATGTGTCTTAAATAGGGCAGTGCTA	-0.491
ATTTACATGCATATAGTATAGTGCTAG	0.616
ATGACCTCACTGCCTGACACGTGCTAG	0.953
GACGGTTTTGGTTCCGGGACGTGCTAG	2.38
GACGGTCTCGGTTCCGGGACGTGCTAG	0.815
GACGGTTTCGGTCTCGGGAGGTGCTAG	6.56
AAGACTCTCTTGTCTGGATGTGTGCTA	0.134
GATGGTATCGACTTTCGGGACGTGCTA	3.41
GGTATTCGGAACTTTTAGCTGTGCTAG	0.311
TCAATTATATATATCATACTGTGCTAG	0.711
TTAGATTTCGGGACTGGCTTAGTGCTA	0.937
GACGACCTCAGTTTCGAGACGTGCTAG	3.36

Block 4
Target: Histone acetyltransferase KAT6A, winged helix 1, GST fusion (KAT6A, Homo sapiens, UniProt Q92794, residues 1-85)
Method: protein binding microarray
Form: double-stranded DNA, one strand shown
Sample: in vitro
Concentration: not given
Setting: 8-mer, flanks averaged, mean of 2 arrays, mostly near background
Reference: not given
Direction: higher = stronger binding
Target sequence (chain): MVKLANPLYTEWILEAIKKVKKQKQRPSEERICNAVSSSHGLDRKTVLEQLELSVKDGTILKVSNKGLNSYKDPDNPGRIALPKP
Strand	E-score
CAACTTAG	-0.154
CGTCACTC	-0.0321
AGGATACC	-0.00558
ACTCAGAT	-0.169
AGTGGCAT	-0.201
AGCCGATC	0.119
GAAGTGCA	-0.0226
AGTCTAAG	-0.0692
ACAAATGT	-0.31
CGTATCCA	-0.178
GCGTCTTA	0.187
ATGATCGA	-0.115
GGACAGGA	-0.13
TATTTTCA	-0.0201
CTTGAGTC	-0.238
GTTCAATA	-0.135
ACCACCAG	-0.293
ACTTACCG	0.289
GCCTTCGC	0.094
CGTCATGA	0.0992
AGATGCCA	-0.139
ATCAACCC	0.0755
ATAGTAAT	-0.0958
CACATGGG	-0.0974
AATATTAG	-0.231
